Measured values pooled from the literature.
Each numbered part is a random draw from the data of one study; scales do not carry over between parts. Several values in a cell are separate wells, animals, samples, runs or records.
UniProt P11802, sequence (whole entry, looked up): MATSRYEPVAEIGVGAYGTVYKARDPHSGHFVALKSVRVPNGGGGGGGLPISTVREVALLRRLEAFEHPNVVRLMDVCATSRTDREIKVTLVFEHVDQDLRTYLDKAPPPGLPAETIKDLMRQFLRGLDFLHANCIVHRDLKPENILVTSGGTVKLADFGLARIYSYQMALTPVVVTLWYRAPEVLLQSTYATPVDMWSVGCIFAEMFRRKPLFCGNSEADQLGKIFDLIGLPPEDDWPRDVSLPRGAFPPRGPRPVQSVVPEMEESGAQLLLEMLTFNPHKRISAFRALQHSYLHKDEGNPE
UniProt P21709, sequence (whole entry, looked up): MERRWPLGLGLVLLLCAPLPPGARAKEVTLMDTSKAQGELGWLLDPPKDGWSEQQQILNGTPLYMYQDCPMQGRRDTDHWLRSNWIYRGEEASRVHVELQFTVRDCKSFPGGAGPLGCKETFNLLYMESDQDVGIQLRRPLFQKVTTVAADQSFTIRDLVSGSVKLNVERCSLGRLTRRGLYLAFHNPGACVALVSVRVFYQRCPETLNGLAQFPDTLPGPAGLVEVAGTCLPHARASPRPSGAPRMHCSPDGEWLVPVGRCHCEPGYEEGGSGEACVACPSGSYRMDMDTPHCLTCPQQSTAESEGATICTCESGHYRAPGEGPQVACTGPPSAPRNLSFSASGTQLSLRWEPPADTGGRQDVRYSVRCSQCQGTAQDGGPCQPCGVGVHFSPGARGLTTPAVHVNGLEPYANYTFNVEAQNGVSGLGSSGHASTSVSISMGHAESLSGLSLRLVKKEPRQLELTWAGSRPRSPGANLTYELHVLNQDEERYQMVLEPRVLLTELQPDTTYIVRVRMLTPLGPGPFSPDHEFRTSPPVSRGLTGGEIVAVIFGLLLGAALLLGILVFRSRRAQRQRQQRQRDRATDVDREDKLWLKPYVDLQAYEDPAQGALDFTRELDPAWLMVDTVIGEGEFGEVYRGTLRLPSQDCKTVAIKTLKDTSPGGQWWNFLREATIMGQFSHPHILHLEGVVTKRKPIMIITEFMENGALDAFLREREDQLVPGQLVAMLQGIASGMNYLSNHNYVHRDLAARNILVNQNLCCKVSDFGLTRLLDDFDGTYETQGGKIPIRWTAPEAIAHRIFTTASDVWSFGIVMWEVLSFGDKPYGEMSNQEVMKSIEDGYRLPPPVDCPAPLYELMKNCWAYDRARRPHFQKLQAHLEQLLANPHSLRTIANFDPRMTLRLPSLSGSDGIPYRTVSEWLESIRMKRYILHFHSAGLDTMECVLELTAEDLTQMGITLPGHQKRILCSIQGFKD
UniProt O95747, sequence (whole entry, looked up): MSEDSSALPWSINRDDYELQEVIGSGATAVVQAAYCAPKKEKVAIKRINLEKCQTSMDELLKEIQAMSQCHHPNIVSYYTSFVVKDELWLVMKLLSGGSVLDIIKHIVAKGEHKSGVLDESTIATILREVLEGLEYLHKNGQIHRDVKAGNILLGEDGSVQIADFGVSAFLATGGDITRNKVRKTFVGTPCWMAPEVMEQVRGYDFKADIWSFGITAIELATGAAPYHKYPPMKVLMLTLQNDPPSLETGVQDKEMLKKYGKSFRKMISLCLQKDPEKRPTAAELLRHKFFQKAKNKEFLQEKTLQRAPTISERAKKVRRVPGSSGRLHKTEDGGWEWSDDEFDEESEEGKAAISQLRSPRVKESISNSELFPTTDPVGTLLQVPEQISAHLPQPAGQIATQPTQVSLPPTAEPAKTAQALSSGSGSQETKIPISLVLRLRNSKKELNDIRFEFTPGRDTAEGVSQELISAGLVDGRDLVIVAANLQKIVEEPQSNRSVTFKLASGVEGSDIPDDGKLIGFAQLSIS
UniProt P52333, sequence (whole entry, looked up): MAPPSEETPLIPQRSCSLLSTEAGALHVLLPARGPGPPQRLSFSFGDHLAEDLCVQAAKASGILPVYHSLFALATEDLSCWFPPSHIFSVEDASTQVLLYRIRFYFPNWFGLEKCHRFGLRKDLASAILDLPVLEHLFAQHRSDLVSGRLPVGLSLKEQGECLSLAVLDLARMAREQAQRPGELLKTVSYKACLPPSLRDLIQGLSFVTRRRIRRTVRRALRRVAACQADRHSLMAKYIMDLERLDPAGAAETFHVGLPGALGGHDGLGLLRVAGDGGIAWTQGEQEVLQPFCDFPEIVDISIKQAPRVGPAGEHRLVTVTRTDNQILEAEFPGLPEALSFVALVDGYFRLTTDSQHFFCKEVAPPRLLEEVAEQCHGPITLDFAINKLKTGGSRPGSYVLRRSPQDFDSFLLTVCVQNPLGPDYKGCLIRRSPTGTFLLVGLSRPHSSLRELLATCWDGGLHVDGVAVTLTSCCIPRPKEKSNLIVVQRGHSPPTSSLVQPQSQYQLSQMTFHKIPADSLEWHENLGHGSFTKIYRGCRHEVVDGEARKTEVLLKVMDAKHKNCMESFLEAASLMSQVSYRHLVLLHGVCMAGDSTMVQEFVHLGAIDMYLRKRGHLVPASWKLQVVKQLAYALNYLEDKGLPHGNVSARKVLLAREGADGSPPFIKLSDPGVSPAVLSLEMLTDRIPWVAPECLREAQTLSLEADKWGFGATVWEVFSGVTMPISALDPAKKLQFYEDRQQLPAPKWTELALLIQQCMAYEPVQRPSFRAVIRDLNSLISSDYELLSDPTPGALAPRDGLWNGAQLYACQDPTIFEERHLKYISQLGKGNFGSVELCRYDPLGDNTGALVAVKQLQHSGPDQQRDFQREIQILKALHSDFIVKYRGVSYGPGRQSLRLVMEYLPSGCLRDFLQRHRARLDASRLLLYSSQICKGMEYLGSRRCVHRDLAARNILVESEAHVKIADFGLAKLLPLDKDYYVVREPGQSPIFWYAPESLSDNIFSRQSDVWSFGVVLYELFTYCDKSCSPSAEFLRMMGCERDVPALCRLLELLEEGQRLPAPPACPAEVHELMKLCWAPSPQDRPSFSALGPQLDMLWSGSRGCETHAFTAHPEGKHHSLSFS
UniProt P51955, sequence (whole entry, looked up): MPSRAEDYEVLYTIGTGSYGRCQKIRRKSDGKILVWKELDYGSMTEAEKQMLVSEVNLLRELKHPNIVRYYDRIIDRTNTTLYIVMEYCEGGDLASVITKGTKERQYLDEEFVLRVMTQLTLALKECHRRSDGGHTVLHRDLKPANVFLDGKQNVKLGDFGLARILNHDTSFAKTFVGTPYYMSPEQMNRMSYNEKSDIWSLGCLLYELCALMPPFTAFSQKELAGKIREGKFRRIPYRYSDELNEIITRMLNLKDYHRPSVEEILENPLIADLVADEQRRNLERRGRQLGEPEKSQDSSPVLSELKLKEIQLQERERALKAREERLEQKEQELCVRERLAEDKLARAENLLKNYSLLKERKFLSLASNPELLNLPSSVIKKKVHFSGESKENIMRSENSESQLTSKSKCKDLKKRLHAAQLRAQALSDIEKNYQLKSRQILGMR
UniProt Q96J92, sequence (whole entry, looked up): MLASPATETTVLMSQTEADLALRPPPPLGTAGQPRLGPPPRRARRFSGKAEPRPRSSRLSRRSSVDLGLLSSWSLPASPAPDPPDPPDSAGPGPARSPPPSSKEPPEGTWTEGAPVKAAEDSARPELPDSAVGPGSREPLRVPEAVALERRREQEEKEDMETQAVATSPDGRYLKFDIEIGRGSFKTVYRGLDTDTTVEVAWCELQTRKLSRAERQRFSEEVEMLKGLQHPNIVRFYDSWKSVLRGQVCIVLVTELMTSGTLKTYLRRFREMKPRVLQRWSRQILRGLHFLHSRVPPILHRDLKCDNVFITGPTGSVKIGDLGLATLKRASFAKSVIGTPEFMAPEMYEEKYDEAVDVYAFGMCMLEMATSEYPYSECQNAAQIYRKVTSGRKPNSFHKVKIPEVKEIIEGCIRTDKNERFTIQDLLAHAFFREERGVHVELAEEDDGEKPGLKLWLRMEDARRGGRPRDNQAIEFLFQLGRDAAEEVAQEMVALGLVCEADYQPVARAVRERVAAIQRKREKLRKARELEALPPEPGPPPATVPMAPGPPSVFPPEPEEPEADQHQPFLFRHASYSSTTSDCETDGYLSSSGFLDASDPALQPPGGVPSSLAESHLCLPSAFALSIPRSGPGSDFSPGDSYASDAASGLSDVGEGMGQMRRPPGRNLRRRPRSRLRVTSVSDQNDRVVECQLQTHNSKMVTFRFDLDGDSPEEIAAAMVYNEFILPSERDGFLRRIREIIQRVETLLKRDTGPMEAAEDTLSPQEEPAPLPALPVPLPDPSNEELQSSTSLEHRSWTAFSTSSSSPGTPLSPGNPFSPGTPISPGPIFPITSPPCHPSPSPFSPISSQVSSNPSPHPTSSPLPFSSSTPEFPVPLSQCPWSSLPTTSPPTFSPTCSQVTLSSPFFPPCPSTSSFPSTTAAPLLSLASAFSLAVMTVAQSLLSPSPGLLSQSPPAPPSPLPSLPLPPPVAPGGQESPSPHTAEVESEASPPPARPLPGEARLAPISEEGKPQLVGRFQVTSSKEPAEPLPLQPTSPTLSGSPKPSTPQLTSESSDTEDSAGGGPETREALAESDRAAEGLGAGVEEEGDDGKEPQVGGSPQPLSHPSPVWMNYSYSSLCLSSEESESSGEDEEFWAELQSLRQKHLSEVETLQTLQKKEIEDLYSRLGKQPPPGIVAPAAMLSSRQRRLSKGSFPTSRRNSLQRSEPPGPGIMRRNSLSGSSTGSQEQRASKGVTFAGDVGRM
UniProt Q9UIK4, sequence (whole entry, looked up): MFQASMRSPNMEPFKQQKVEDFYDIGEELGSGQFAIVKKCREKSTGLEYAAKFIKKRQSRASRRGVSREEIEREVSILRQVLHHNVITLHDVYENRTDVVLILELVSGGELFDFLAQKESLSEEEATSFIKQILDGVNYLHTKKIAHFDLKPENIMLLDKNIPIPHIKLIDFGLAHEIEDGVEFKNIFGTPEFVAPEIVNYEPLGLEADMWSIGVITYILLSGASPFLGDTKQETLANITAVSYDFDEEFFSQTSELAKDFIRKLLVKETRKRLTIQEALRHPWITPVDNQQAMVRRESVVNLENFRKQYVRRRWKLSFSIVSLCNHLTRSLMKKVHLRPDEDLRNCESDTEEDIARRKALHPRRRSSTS

Set 1
SMILES: c1ccc(Oc2ccc(Nc3c4c(nc5ccccc35)CCC4)cc2)cc1
Organism: Leishmania donovani
Strain: DD8
Sample: promastigotes
setting | promastigote number
16.66 µM, 72 h | 1250 and 1550
6.66 µM, 72 h | 1570 and 1260
0.03 µM, 48 h | 4.35e+06 and 4.37e+06
0.66 µM, 48 h | 2.13e+06
0.16 µM, 48 h | 4.37e+06
6.66 µM, 48 h | 1470
0.66 µM, 72 h | 5.66e+06 and 5.65e+06

Set 2
SMILES: O=C1c2ccccc2-c2nc3nnnn3nc21
Read-out: enzyme activity
Action: inhibitor
Tested at: 0.5 µM
Relative to: control
target | remaining activity [%]
STE20/SPS1-related proline-alanine-rich protein kinase (STK39, Homo sapiens, UniProt Q9UEW8) | 89.2
Protein kinase C beta type, isoform beta-I (PRKCB, Homo sapiens, UniProt P05771) | 83.1
Tyrosine-protein kinase Lyn, isoform B (LYN, Homo sapiens, UniProt P07948) | 40.1
Mitogen-activated protein kinase 9 (MAPK9, Homo sapiens, UniProt P45984) | 51.9
Serine/threonine-protein kinase Nek2 (NEK2, Homo sapiens, UniProt P51955) | 77.7
Serine/threonine-protein kinase Chk2 (CHEK2, Homo sapiens, UniProt O96017) | 54.7
Cyclin-dependent kinase 5, with p25 (CDK5, Homo sapiens, UniProt Q00535) | 46.4
Cyclin-dependent kinase 4, with cyclin D1 (CDK4, Homo sapiens, UniProt P11802) | 59.9
Death-associated protein kinase 1 (DAPK1, Homo sapiens, UniProt P53355) | 92.2
Inhibitor of nuclear factor kappa-B kinase subunit beta (IKBKB, Homo sapiens, UniProt O14920) | 73.4
cAMP-dependent protein kinase catalytic subunit alpha (PRKACA, Homo sapiens, UniProt P17612) | 76.6
Inhibitor of nuclear factor kappa-B kinase subunit epsilon (IKBKE, Homo sapiens, UniProt Q14164) | 89.2
G protein-coupled receptor kinase 3 (GRK3, Homo sapiens, UniProt P35626) | 106
Death-associated protein kinase 2 (DAPK2, Homo sapiens, UniProt Q9UIK4) | 83.4
Calcium/calmodulin-dependent protein kinase type II subunit delta (CAMK2D, Homo sapiens, UniProt Q13557) | 93
Serine/threonine-protein kinase OSR1 (OXSR1, Homo sapiens, UniProt O95747) | 83
TGF-beta receptor type-2 (TGFBR2, Homo sapiens, UniProt P37173) | 93.4
cGMP-dependent protein kinase 1, isoform beta (PRKG1, Homo sapiens, UniProt Q13976) | 133
Serine/threonine-protein kinase 10 (STK10, Homo sapiens, UniProt O94804) | 84.3
Calcium/calmodulin-dependent protein kinase kinase 2 (CAMKK2, Homo sapiens, UniProt Q96RR4) | 76.9

Set 3
Compound: Nc1cnc(N2CCc3cc(S(=O)(=O)Nc4c(F)cc(Cl)cc4F)cc(N4CCCC4=O)c32)nc1
Read-out: cell-free assay
Method: competition with immobilised ligand
Tested at: 1 µM
target | remaining binding [%]
Vascular endothelial growth factor receptor 1 (FLT1, Homo sapiens, UniProt P17948) | 93
Cyclin-dependent kinase 15 (CDK15, Homo sapiens, UniProt Q96Q40) | 80
Serine/threonine-protein kinase Nek6 (NEK6, Homo sapiens, UniProt Q9HC98) | 100
Epidermal growth factor receptor (EGFR, Homo sapiens, UniProt P00533, A750P/del747-749) | 63
Receptor-type tyrosine-protein kinase FLT3 (FLT3, Homo sapiens, UniProt P36888) | 81
Calcium/calmodulin-dependent protein kinase type IV (CAMK4, Homo sapiens, UniProt Q16566) | 96
Cyclin-dependent kinase 4, with cyclin D3 (CDK4, Homo sapiens, UniProt P11802) | 86
Rho-associated protein kinase 2 (ROCK2, Homo sapiens, UniProt O75116) | 100
Homeodomain-interacting protein kinase 3 (HIPK3, Homo sapiens, UniProt Q9H422) | 100
Epidermal growth factor receptor (EGFR, Homo sapiens, UniProt P00533, del747-752/P753S) | 71
Receptor-type tyrosine-protein kinase FLT3 (FLT3, Homo sapiens, UniProt P36888, K663Q) | 97
Dual specificity protein kinase CLK2 (CLK2, Homo sapiens, UniProt P49760) | 100
Dual serine/threonine and tyrosine protein kinase (DSTYK, Homo sapiens, UniProt Q6XUX3) | 100
Tyrosine-protein kinase ABL1, phosphorylated (ABL1, Homo sapiens, UniProt P00519) | 97
Leukocyte tyrosine kinase receptor (LTK, Homo sapiens, UniProt P29376) | 100
STE20/SPS1-related proline-alanine-rich protein kinase (STK39, Homo sapiens, UniProt Q9UEW8) | 100
Aurora kinase B (AURKB, Homo sapiens, UniProt Q96GD4) | 98
Ephrin type-A receptor 1 (EPHA1, Homo sapiens, UniProt P21709) | 99
Receptor-type tyrosine-protein kinase FLT3 (FLT3, Homo sapiens, UniProt P36888, D835Y) | 100
Cyclin-dependent kinase 14 (CDK14, Homo sapiens, UniProt O94921) | 100
Calcium/calmodulin-dependent protein kinase type 1 (CAMK1, Homo sapiens, UniProt Q14012) | 88
Tyrosine-protein kinase JAK3, JH1 (JAK3, Homo sapiens, UniProt P52333) | 100
Receptor-type tyrosine-protein kinase FLT3 (FLT3, Homo sapiens, UniProt P36888, D835V) | 100
Serine/threonine-protein kinase WNK4 (WNK4, Homo sapiens, UniProt Q96J92) | 100
Serine/threonine-protein kinase VRK2 (VRK2, Homo sapiens, UniProt Q86Y07) | 100

Set 4
SMILES: O=C1CCC(N2Cc3cc(C4CCN(Cc5ccccc5)CC4)ccc3C2=O)C(=O)N1 (stereo not shown)
Sample: plasma
test system | setting | MRT(0-t) [h]
male CD-1 mouse | oral, 3 mg/kg | 1.7
Sprague Dawley rat, male | oral, 3.0 mg/kg | 2.93
male CD-1 mouse | intravenous, 1 mg/kg | 2.01

Repeated from above (set 2):
target | remaining activity [%]
Serine/threonine-protein kinase OSR1 (OXSR1, Homo sapiens, UniProt O95747) | 83
cAMP-dependent protein kinase catalytic subunit alpha (PRKACA, Homo sapiens, UniProt P17612) | 76.6
STE20/SPS1-related proline-alanine-rich protein kinase (STK39, Homo sapiens, UniProt Q9UEW8) | 89.2
Death-associated protein kinase 2 (DAPK2, Homo sapiens, UniProt Q9UIK4) | 83.4
Serine/threonine-protein kinase Nek2 (NEK2, Homo sapiens, UniProt P51955) | 77.7
Calcium/calmodulin-dependent protein kinase kinase 2 (CAMKK2, Homo sapiens, UniProt Q96RR4) | 76.9
cGMP-dependent protein kinase 1, isoform beta (PRKG1, Homo sapiens, UniProt Q13976) | 133
TGF-beta receptor type-2 (TGFBR2, Homo sapiens, UniProt P37173) | 93.4
